Results of several laboratories.
Parts stem from different laboratories: compare values within a part only. Changes are numbered by the printed parent chain.

Set 1
Target: ABI1, truncated, D143A, DHFR fusion (Arabidopsis thaliana)
Method: DHFR PCA, deep sequencing
Sample: yeast
Setting: methotrexate growth selection, single substitutions
Added: (+)-ABA 0.39 µM
Relative to: wild-type fitted maximum
Direction: higher = stronger binding
Measurement: relative binding score
Starting sequence: PYL1, truncated, DHFR fusion (Arabidopsis thaliana); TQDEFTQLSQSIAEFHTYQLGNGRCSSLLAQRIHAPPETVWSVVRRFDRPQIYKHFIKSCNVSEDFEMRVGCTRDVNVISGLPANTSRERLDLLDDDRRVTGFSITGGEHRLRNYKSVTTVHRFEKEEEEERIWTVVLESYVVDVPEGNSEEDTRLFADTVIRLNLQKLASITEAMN
E109A: 1.71%
R69N: 19.5%
E129H: 37.9%
E139D: -20%
I133L: 42.5%
R113Y: -5.13%
D92M: -6.89%

Set 2
Target: CCNB2, cyclin fold, Cln2 fusion (human)
Method: yeast growth competition, sequencing
Sample: yeast
Setting: weak parent motif
Relative to: not given
Direction: higher = stronger binding
Measurement: normalised enrichment score
Starting sequence: CDC6 docking peptide (human); TLKGRRLVFDNQL
TWKGRRLVFDNQL [L2W]: -0.0483
TLKERRLVFDNQL [G4E]: 0.0798
TLKGRWLVFDNQL [R6W]: -0.908
TLKPRRLVFDNQL [G4P]: 0.783
TLIGRRLVFDNQL [K3I]: 0.407
TLKGRRLVFDHQL [N11H]: 0.274
TFKGRRLVFDNQL [L2F]: -0.285

Set 3
Target: Histone acetyltransferase KAT6A, both winged helices, GST fusion (KAT6A, Homo sapiens, UniProt Q92794, residues 1-181)
Method: protein binding microarray
Molecule type: double-stranded DNA, one strand shown
Sample: in vitro
Tested at: not given
Setting: 8-mer, flanks averaged, mean of 2 arrays, mostly near background
Relative to: not given
Direction: higher = stronger binding
Measurement: E-score
Construct (chain): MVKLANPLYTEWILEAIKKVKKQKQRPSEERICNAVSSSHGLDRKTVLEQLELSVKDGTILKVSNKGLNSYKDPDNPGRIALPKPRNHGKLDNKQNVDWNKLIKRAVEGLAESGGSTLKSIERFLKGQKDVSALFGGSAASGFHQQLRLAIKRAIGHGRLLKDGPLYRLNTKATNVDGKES
ACTTAGTA: -0.0567
GTAGGCTA: -0.147
TCGAAAAA: 0.0737
ATAGAAAC: 0.00929
AACCTTAG: -0.0801
GCGAAACC: 0.129
GAGTTTAC: -0.0256
CAAAACGA: -0.0434

Further values, each from its own experiment
PhoQ, residues 284 288 289 292 302 303 ASVMEA  fold induction (PhoP, residues 12 14 15 18 19 NIMAP (Escherichia coli, UniProt P23836); Sort-seq, item: YFP reporter; E. coli; PhoQ-PhoP variant library, added: 10 µM Mg2+; relative to: high Mg2+ state, higher = stronger signaling): 0.521

Some of these lines once more (set 3):
ATAGAAAC: 0.00929
AACCTTAG: -0.0801
GCGAAACC: 0.129
